Assay results pooled from the literature.
Every numbered part comes from another study and shows a few of its results, in no order.

Block 1 — method: universal PBM; molecule type: double-stranded DNA, one strand shown; sample: in vitro; tested at: not given; reading: higher = stronger binding
Target: Sal-like protein 4, full length isoform B (SALL4, Homo sapiens, UniProt Q9UJQ4-2, residues 1-616)
Notes: 8-mer, flanks averaged, mean of replicates
| Oligonucleotide | E-score |
| --- | --- |
| AATAGTAT | 0.35 |
| CGGTAGGC | -0.238 |
| CCAAGTTC | -0.177 |
| CGCTAGAG | -0.217 |
| CCAACTAA | 0.0841 |
| CGCGGTTA | -0.135 |

Block 2 — method: protein binding microarray; molecule type: double-stranded DNA, one strand shown; sample: in vitro; tested at: not given; reference: not given; reading: higher = stronger binding
Target: Histone acetyltransferase KAT6A, winged helix 1, GST fusion (KAT6A, Homo sapiens, UniProt Q92794, residues 1-85)
Notes: 8-mer, flanks averaged, mean of 2 arrays, mostly near background
Construct (chain): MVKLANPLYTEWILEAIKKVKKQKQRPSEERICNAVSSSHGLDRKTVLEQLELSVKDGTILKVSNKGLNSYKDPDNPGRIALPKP
| Oligonucleotide | E-score |
| --- | --- |
| CATTGTCG | -0.052 |
| CCGTTAAA | 0.147 |
| CCAAAGGC | 0.0138 |
| ACATGGGG | -0.0135 |
| CGGTCCAG | 0.0759 |

Block 3 — method: protein-binding microarray; molecule type: double-stranded DNA, one strand shown; sample: in vitro; tested at: 2200 nM top; notes: 60-bp whole probe; together with: salmon DNA 0.4 mg/ml; reference: random background probes; reading: higher = stronger binding; constant ends, left off below: GCCTAGCAC … GTCTTGATTCGCTTGACGCTGCTG
Target: Interferon regulatory factor 7, full length, phosphomimetic (IRF7, Homo sapiens, UniProt Q92985, residues 1-503, S471D/S472D/S475D/S476D/S477D/S483D/S484D/S487D)
Target sequence (chain): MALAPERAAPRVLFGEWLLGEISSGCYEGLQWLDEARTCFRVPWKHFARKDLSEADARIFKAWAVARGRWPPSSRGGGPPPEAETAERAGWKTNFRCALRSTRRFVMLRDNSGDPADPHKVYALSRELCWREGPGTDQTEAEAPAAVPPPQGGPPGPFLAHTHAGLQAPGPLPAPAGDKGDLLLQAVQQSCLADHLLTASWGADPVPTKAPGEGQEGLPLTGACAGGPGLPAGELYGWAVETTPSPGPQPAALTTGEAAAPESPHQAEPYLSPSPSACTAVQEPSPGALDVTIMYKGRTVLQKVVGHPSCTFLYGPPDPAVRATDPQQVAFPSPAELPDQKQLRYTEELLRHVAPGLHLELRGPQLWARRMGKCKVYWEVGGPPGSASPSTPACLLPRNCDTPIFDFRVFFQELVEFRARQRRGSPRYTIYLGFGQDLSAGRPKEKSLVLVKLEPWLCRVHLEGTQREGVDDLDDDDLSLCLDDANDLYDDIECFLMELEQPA
| Oligonucleotide | fitted relative affinity [z-score] |
| --- | --- |
| TTAGGTCCCGGTTTCGGTTAGTGCTAG | 6.98 |
| TTAGAACTGGGGTTTCGACTAGTGCTA | 0.692 |
| GACGGTCTCCGACTGCTGACGTGCTAG | -0.355 |
| ACAGAACTCAACTGTCTGCCTGTGCTA | 0.373 |
| CCCTTTTCATGCTCTTATATAGTGCTA | 2.49 |

Further values, each from its own experiment
| Substance | target | assay | test system | conditions | how to read | measurement | value |
| --- | --- | --- | --- | --- | --- | --- | --- |
| PhoQ, residues 284 288 289 292 302 303 SLANIV | PhoP, residues 12 14 15 18 19 NQGLL (Escherichia coli, UniProt P23836) | Sort-seq, item: YFP reporter | E. coli | PhoQ-PhoP variant library, together with: 10 µM Mg2+ | reference: high Mg2+ state, higher = stronger signaling | fold induction | 2.32 |

For quick reference, copied from above (block 2):
| Oligonucleotide | E-score |
| --- | --- |
| ACATGGGG | -0.0135 |
| CATTGTCG | -0.052 |
